Experimental data pooled from the literature.
Compare with care: the assays were run in different laboratories. Several values in a cell are separate wells, animals, samples, runs or records. Numbers after ± are the reported error.

COc1c(Cl)cccc1Nc1c(-c2ccncc2OC[C@@H]2COCCO2)[nH]c2c1C(=O)NCC2
tumour weight T/C (mouse, NSCLC PDX sample A; oral, 50 mg/kg once daily, day 27, unit not given; reference: vehicle): 0.06

C=CCn1c(=O)c2cnc(Nc3ccc(N4CCN(C)CC4)cc3)nc2n1-c1ccc2c(n1)[C@@](O)(CC)CC2
tumour volume difference (BALB/c nude mouse, DU-145 xenograft; oral, 80 mg/kg, 5 d on 2 d off ×4, day 30; reference: vehicle): 768 ± 48.9 mm3

CCc1cnc(NC(=O)c2cc(S(=O)(=O)N3CCOCC3)ccc2N(C)C2CCCC2)s1
tumour volume (mouse HCC827-GR xenograft; ip, 10 mg/kg, 360 h): 186 ± 16 mm³

C=CC(=O)Nc1cc(Nc2nccc(Nc3cc(Cl)c(F)cc3C(C)(C)O)n2)c(OC)cc1N1CC[C@@H](N(C)C)C1
tumour growth inhibition (NCI-H2073 parental, EGFR wild type, BALB/c nude mouse, NCI-H2073 xenograft; 50 mg/kg twice daily, 21 days): 108%

CN[C@@H](C)C(=O)N[C@H]1CN(C(=O)CC(C)C)CC[C@H]2CC[C@@H](C(=O)NC(c3ccccc3)c3ccccc3)N2C1=O
tumour apoptosis rate constant (tumour growth inhibition model; mouse, MDA-MB-231 xenograft): 0.00067 h⁻¹

COCc1cc(C(=O)Nc2cc([C@H]3CC[C@@H](OC(=O)NC(C)C)C3)[nH]n2)n(C)n1
tumour growth inhibition (OVCAR-3 xenograft, NSG mouse; oral twice daily, lowest dose of escalation): 54%

Cc1nc(N(Cc2ccccc2)c2ccc3c(c2)/C(=C/c2ccccc2)C(=O)N3Cc2ccccc2)c2ccccc2n1 (mixture of isomers)
tumour weight (mouse LLC syngeneic tumour; ip, 30 mg/kg every two days, 14 days): 0.38 g

COc1ccc(S(=O)(=O)ON=C2C=C(C)C(=O)C(C)=C2)cc1
tumour H4 acetylation (immunohistochemistry; NU/NU mouse, MDA-MB-468 xenograft; dose not given; reference: DMSO): decreased

COc1ccc(F)cc1C(=O)NCc1ccc(-c2nn([C@@H](C)C(F)(F)F)c(N)c2C(N)=O)cc1
tumour regression (TMD8 xenograft, mouse; 30 mg/kg twice daily, day 18): -49%

Cl.O=C(c1cc(Cc2n[nH]c(=O)c3ccccc23)ccc1F)N1CC(CNC2CC2)C1
tumour growth inhibition (BALB/c nude mouse, MX1 xenograft; oral, 12.5 mg/kg once daily, 23 days): 43.8%

O=C(NO)c1ccc(CN(c2cnccn2)c2cnccn2)cc1
tumour acetylated α-tubulin level (mouse, B16-F10 tumour; efficacious doses): increased

COc1nc(-c2cccc(-c3ccccc3)c2C)ccc1CNCCNC(=O)CCCCCCCCCCC(=O)N1CCN(CCNC(=O)c2cc3c(=O)n4cccc(C)c4nc3n(CCc3cccs3)c2=N)CC1
tumour weight reduction (C57BL/6 mouse B16-F10 tumour; ip, 10 mg/kg; reference: vehicle): 44%

COc1cc2ncnc(Nc3ccc(F)c(Cl)c3)c2cc1OCCCN1CCOCC1
tumour weight (mouse LLC syngeneic tumour; ip, 50 mg/kg every two days, 14 days): 0.79 g

CC1(C)CN(CCCCC(=O)N[C@H](Cc2ccccc2)C(=O)N[C@H](Cc2ccccc2)C(=O)N[C@H](CCCCNC(=O)CCCCCCC(=O)NCCCC[C@H](NC(=O)N[C@@H](CCC(=O)O)C(=O)O)C(=O)O)C(=O)O)CC[N]2CC(C)(C)[S][Tc]2(=[O])[S]1 (stereo partly drawn) [technetium-99m labelled]
tumour uptake (SPECT/PET imaging; mouse, subcutaneous LNCaP tumour, tumour; dose not given, 4 h post-injection): decreased

C[C@]12CC[C@@H]3c4ccc(O)cc4C[C@@H](CCCCCCCCC[S+]([O-])CCCC(F)(F)C(F)(F)F)[C@H]3[C@@H]1CC[C@@H]2O (stereo partly drawn)
tumour volume (female nude mouse LCC2 xenograft; 2.0 mg/kg, day 7, tamoxifen-resistant): 68.1 mm3 and 39 mm3 and 95.2 mm3 and 73.1 mm3 and 39.5 mm3 and 45.6 mm3 and 56.4 mm3

Some of these lines once more:
Cc1nc(N(Cc2ccccc2)c2ccc3c(c2)/C(=C/c2ccccc2)C(=O)N3Cc2ccccc2)c2ccccc2n1 (mixture of isomers)
tumour weight (mouse LLC syngeneic tumour; ip, 30 mg/kg every two days, 14 days): 0.38 g
